Measurements gathered from unrelated publications.
Each line is one published result; not all experiments were run side by side. Values joined by “and” are separate records of one study, mostly repeats; a detail may differ. ± gives the spread as reported.
ALB: Albumin (ALB, Homo sapiens, UniProt P02768)
ABCB1: ATP-dependent translocase ABCB1 (ABCB1, Homo sapiens, UniProt P08183)
Chain of UniProt P08183 (whole entry, looked up): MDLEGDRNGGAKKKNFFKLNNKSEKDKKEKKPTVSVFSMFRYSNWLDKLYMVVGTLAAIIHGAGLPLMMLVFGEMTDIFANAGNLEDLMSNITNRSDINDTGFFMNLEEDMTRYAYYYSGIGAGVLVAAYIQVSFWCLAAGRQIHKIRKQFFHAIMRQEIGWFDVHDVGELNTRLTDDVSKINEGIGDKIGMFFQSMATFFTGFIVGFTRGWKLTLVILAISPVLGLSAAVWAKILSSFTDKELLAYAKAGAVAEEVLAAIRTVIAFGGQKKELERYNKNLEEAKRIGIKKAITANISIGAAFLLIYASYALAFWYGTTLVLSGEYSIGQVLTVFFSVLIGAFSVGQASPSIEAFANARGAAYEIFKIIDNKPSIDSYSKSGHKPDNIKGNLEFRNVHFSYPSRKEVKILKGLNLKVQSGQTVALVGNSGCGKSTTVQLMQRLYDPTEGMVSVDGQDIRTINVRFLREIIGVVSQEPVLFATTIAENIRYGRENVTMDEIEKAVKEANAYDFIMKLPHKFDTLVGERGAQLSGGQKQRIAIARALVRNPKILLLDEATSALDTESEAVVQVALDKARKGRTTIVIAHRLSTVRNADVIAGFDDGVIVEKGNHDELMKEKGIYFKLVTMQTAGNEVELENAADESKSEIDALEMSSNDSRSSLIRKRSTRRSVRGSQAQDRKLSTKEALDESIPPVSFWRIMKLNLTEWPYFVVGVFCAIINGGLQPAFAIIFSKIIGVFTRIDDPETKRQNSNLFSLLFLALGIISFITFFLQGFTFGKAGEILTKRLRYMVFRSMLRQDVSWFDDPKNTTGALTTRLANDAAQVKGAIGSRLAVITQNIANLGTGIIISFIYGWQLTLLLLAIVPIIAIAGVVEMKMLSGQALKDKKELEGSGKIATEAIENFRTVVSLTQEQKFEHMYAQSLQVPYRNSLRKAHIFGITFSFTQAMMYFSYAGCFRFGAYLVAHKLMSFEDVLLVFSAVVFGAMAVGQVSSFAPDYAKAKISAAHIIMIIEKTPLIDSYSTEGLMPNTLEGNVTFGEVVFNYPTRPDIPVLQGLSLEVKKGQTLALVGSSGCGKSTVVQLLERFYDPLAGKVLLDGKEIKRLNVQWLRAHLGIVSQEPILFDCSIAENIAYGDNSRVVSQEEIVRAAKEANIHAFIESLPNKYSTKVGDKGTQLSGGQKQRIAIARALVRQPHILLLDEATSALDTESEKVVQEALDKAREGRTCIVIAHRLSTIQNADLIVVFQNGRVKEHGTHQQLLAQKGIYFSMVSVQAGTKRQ
Chain of UniProt P20813 (whole entry, looked up): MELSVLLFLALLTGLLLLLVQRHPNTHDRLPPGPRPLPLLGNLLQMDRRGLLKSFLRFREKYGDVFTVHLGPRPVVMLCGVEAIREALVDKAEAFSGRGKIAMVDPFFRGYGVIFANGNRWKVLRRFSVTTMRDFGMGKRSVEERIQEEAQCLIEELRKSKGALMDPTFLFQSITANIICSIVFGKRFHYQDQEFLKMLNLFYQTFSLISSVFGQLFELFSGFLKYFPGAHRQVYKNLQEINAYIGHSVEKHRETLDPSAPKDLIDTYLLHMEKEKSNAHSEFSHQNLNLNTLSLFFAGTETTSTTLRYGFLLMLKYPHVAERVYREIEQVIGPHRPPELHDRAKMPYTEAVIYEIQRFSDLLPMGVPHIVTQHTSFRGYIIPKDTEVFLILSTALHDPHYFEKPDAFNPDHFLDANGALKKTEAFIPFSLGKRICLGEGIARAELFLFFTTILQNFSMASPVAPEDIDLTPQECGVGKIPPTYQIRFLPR

`N#C[C@@H]1CC(F)(F)CN1C(=O)CNC(=O)c1ccnc2c(NC(=O)[C@H](CCCCNC(=O)CCOCCOCCOCCOCCOCCOCCNC(=O)CN3CCN(CC(=O)[O-])CCN(CC(=O)[O-])CCN(CC(=O)[O-])CC3)NC(=O)CCCc3ccc(I)cc3)cccc12.[177Lu+3]` has a tracer uptake of 6.69 %ID/g (U-87 MG tumour model; host not given, bone; 1 h, tumour-bearing).
`CN1CCN(c2ccc3[nH]c(-c4ccc5[nH]c(-c6ccc(OCCCCNC(=O)c7cccc8c7C(=O)OC87c8ccc(N(C)C)cc8C(C)(C)c8cc(N(C)C)ccc87)cc6)nc5c4)nc3c2)CC1`: “fluorescence quantum yield” 0.092 ± 0.002 (ALB; PBS; 1 µM, 1 h, with: 25 mg/mL albumin).
The AUC(0-t) of `C=C(NC(=O)c1csc(-c2nc3c(cc2O)-c2nc(cs2)C(=O)NC(C(C)O)C(=O)NC(=C(C)OC)c2nc(cs2)C(=O)NC2c4nc(cs4)C(=O)NC(COC(=O)c4c5c6c(cccc6n4O)COC(=O)C(OC4CC(C)(O)C(N(C)C)C(C)O4)C2OC5)c2nc-3cs2)n1)C(N)=O` (stereo not drawn) is reported as 773 ng·h/mL (ICR mice, Streptococcus pneumoniae ATCC 49169 infected, immunocompromised, blood; intravenous, 8 mg/kg/day twice daily).
With `Nc1nc2cc(C(=O)c3ccc(F)cc3)ccc2[nH]1` the revertants was 129 revertants/plate (Salmonella typhimurium; Ames preincubation test; TA100; 39.0 µg/plate, without S9).
`Cc1nc(Nc2ncc(C(=O)Nc3c(C)cccc3Cl)s2)cc(N2CCN(C(=O)CCOCCNC(=O)CN)CC2)n1` gave a viability of 93% and 91% and 94% (K562; cell growth or viability, CCK-8; 250 pM).
`CCc1c(-c2ccc3[nH]ncc3c2)cnc(N)c1-c1ccc(O)cc1` has a viability of 106% and 107% (CHP-212 resistant sublines (heterozygous USP7 V517F); cell viability; 3.125 µM).
With `N#C[C@@H]1CC(F)(F)CN1C(=O)CNC(=O)c1ccnc2c(NC(=O)[C@@H](N)CCCCNC(=O)CCOCCOCCOCCOCCOCCOCCNC(=O)CN3CCN(CC(=O)[O-])CCN(CC(=O)[O-])CCN(CC(=O)[O-])CC3)cccc12.[177Lu+3]` the tracer uptake was 0.28 %ID/g (U-87 MG tumour model; host not given, bone; 48 h, tumour-bearing).
For `CC(C)OCCOCc1ccc(OCC(O)CN(N=O)C(C)C)cc1` (stereo not drawn), “revertant fold increase” read 0.7 fold (Salmonella typhimurium; Ames test; TA1537; 158 µg/plate, 30 % hamster S9; reference: solvent control).
For `N#C[C@@H]1CCCN1C(=O)CNC(=O)c1ccnc2ccc(OCCCN3CCN(C(=O)CCc4ccc5c(c4)CN4CCN6CC(=O)[O][68Ga-]([O]C(=O)C4)([O]5)[O]c4ccc(CCC(=O)N5CCN(CCCOc7ccc8nccc(C(=O)NCC(=O)N9CCC[C@H]9C#N)c8c7)CC5)cc4C6)CC3)cc12`, the tracer uptake was 5.02 %ID/g (U-87 MG tumour model; host not given, bone; 2 h, tumour-bearing).
`O=C(OC[C@@]1(O)C(=O)C=C[C@H]2[C@@H]1[C@H]1C=C[C@@H]2C(=O)[C@]1(O)COC(=O)c1ccccc1)c1ccccc1` gave a viability of 98.5% (K562; cell growth or viability, MTT; 6.25 µg/mL).
With `O=C(Nc1cnccc1-c1ccc([18F])cc1)c1ccnc(NC(=O)C2CC2)c1` the mean SUV was 0.23 (ex vivo biodistribution, gamma counting; GSK-3β overexpressing transgenic mouse, late stage, adipose tissue; intravenous, 120 min post-injection, with: tariquidar 15 mg/kg iv, at least 2 h before tracer).
Under “mean revertant colonies”, `O=C1C2CC3CC1CC(C(=O)N1CCN(c4ccc([N+](=O)[O-])c5ncccc45)CC1)(C3)C2` is recorded as 29 colonies/well (Salmonella typhimurium; Ames test; TA100; 0.02 µg/well, with S9).
Under “Papp A to B”, `CNc1nc(N)nc2c1ncn2[C@@H]1O[C@H](CO)[C@@H](O)[C@@]1(C)F` is recorded as 14.2 ± 0.6 ×10⁻⁶ cm/s (ABCB1; bidirectional transport; LLC-PK1, human MDR1, transfected with; 10 µM, with: zosuquidar 1 µM).
`CCN(CC)CC#CCNc1ccnc2cc(Cl)ccc12` — result for “revertants per well”: 71 (Salmonella typhimurium; mini-Ames test; TA102; 62.5 µg/well, with rat liver S9).
With `CN(C)c1ccc2c(c1)C(C)(C)c1cc(N(C)C)ccc1C21OC(=O)c2c(C(=O)O)cccc21` the Kd was 46 ± 11 µM (ALB; binding, fluorescence titration; PBS).
`CC(C)Cc1ccc(C(C)C(=O)N[C@@H](CCCCNC(=O)CCOCCOCCOCCOCCOCCOCCNC(=O)CN2CCN(CC(=O)[O-])CCN(CC(=O)[O-])CCN(CC(=O)[O-])CC2)C(=O)Nc2cccc3c(C(=O)NCC(=O)N4CC(F)(F)C[C@H]4C#N)ccnc23)cc1.[177Lu+3]` (stereo partly drawn) gave a tracer uptake of 7.24 %ID/g (U-87 MG tumour model; host not given, bone; 4 h, tumour-bearing).
The tracer uptake of `COc1cccc(OC)c1-c1cc(C(=O)NC2(C(=O)O)C3CC4CC(C3)CC2C4)nn1-c1ccc(C(=O)N(C)CCOCCN(C)C(=O)[C@H](CCCCNC(=O)[C@H](CC(C)C)NC(=O)C2OC2C(=O)O)NC(=O)CN2CCN(CC(=O)[O-])CCN(CC(=O)[O-])CCN(CC(=O)[O-])CC2)cc1C(C)C.[177Lu+3]` (mixture of isomers) is reported as 0.61 %ID/g (HT-29 tumour model; host not given, bone; 4 h, tumour-bearing).
With `Cc1nc(N)nc2c1C(=O)N[C@@H](c1ccc(F)cc1-c1cccc(O[11CH3])n1)C2` the tracer uptake was 0.9 ± 0.1 %ID (radioligand, ex vivo biodistribution; mouse, MDA-MB-231 xenograft, tumour; 60 min p.i.).
For `CNC(=O)C1CCCN(C(=O)C2CC3CCC2N3C(=O)[C@@H]2C[C@@H](O)CN2C(=O)NCc2cccc(Cl)c2F)C1` (mixture of isomers), the IC50 was over 50 µM (Cytochrome P450 2B6 (CYP2B6, Homo sapiens, UniProt P20813); enzyme activity, inhibitor; human, liver microsomes).
`C/C(N)=N/C(=N\S(=O)(=O)c1ccc(C(F)(F)F)cc1)N1C[C@H](c2ccccc2)C(c2ccc(Cl)cc2)=N1` has a Papp A→B of 11 ×10⁻⁶ cm/s (ABCB1; MDCK-MDR1; 5 µM, 2 h, pH 7.4).
For `N#C[C@@H]1CC(F)(F)CN1C(=O)CNC(=O)c1ccnc2c(NC(=O)CCOCCOCCOCCOCCOCCOCCNC(=O)[C@H](CCCCNC(=O)CN3CCN(CC(=O)[O-])CCN(CC(=O)[O-])CCN(CC(=O)[O-])CC3)NC(=O)CCCc3ccc(I)cc3)cccc12.[177Lu+3]`, the tracer uptake was 0.9 %ID/g (U-87 MG tumour model; host not given, heart; 4 h, tumour-bearing).
The tracer uptake of `COc1cccc(OC)c1-c1cc(C(=O)NC2(C(=O)O)C3CC4CC(C3)CC2C4)nn1-c1ccc(C(=O)N(C)CCOCCOCCN(C)C(=O)[C@H](CCCCNC(=O)[C@H](CC(C)C)NC(=O)C2OC2C(=O)O)NC(=O)CN2CCN(CC(=O)[O-])CCN(CC(=O)[O-])CCN(CC(=O)[O-])CC2)cc1C(C)C.[177Lu+3]` (mixture of isomers) is reported as 0.13 %ID/g (HT-29 tumour model; host not given, pancreas; 24 h, tumour-bearing).
For `COC(=O)Nc1nc2cc(C(O)c3ccc(F)cc3)ccc2[nH]1` (stereo not drawn), the revertants was 134 revertants/plate (Salmonella typhimurium; Ames preincubation test; TA100; 54.7 µg/plate, without S9).
For `C=CC(=O)Nc1cc(Nc2nccc(-c3cn(C)c4ccccc34)n2)c(OCC(F)(F)F)nc1N(C)CCN(C)C`, “induction relative to positive control” read 5.21% (CYP1A2 human; inducer; hepatocytes lot HC3-31; 0.1 µM; reference: omeprazole 100 µM).

Repeated from above:
Under “mean revertant colonies”, `O=C1C2CC3CC1CC(C(=O)N1CCN(c4ccc([N+](=O)[O-])c5ncccc45)CC1)(C3)C2` is recorded as 29 colonies/well (Salmonella typhimurium; Ames test; TA100; 0.02 µg/well, with S9).
Under “Papp A to B”, `CNc1nc(N)nc2c1ncn2[C@@H]1O[C@H](CO)[C@@H](O)[C@@]1(C)F` is recorded as 14.2 ± 0.6 ×10⁻⁶ cm/s (ABCB1; bidirectional transport; LLC-PK1, human MDR1, transfected with; 10 µM, with: zosuquidar 1 µM).
